Measured values of several laboratories.
Numbered parts are unrelated; each lists some results of a single study. Positions count from the first letter of the parent shown.

Sample 1
Target: ABI1, truncated, D143A, DHFR fusion (Arabidopsis thaliana)
Method: DHFR PCA, deep sequencing
Matrix: yeast
Notes: methotrexate growth selection, single substitutions
Together with: (+)-ABA 0.032 µM
Relative to: wild-type fitted maximum
Direction: higher = stronger binding
Starting sequence: PYL1, truncated, DHFR fusion (Arabidopsis thaliana); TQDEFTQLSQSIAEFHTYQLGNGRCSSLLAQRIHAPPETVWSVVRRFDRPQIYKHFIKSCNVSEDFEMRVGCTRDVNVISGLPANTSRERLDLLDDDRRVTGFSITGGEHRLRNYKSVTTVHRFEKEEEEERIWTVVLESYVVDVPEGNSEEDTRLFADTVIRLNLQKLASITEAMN; partner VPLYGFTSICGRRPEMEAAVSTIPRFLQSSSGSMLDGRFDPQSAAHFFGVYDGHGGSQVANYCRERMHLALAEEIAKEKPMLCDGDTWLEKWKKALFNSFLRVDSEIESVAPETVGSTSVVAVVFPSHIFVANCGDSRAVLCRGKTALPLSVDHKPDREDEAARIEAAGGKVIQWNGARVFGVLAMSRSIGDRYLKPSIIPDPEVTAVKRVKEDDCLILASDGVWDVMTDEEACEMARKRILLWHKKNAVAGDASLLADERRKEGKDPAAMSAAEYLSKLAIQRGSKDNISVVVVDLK
| Change | relative binding score [%] |
| --- | --- |
| W134F | 23.4 |
| T86C | 27 |
| Y115C | 6.9 |
| R155K | 47.9 |
| T173Q | -1.64 |
| F66D | -1.22 |
| R49V | 2.26 |
| E128D | 50.7 |
| D95A | 0.687 |
| V43A | 2.9 |
| T106A | -1.12 |
| V76A | 3.25 |
| M68S | -1.71 |
| T119M | 4.89 |
| T17Y | -6.07 |
| I12A | 2.22 |
| W41A | -4.92 |
| A35R | -5.13 |
| T160S | 4.89 |
| F157W | 28.1 |
| R111H | 8.53 |
| F124Q | 5.53 |
| Y141M | -2.86 |

Sample 2
Target: RNA binding protein fox-1 homolog 2, RRM domain, GST-SBP tag (RBFOX2, Homo sapiens, UniProt O43251-10, residues 100-194)
Method: RNA Bind-n-Seq
Form: RNA
Matrix: in vitro
Tested at: 365 nM
Notes: natural RNA segment, single round, ends assumed
Relative to: no-protein control
Direction: higher = stronger binding
Target sequence (chain): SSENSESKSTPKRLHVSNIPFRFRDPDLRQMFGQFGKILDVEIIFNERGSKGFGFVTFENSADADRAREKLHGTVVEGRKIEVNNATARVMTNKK
| Strand | RBNS enrichment (R) |
| --- | --- |
| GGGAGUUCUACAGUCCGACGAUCACUUUUUAAAUCAUGUUCCCCCUAAACAUGGCUGUUAACCCACUGCAUGCAGAAACUUGGAUGUCACUGCCUGACAUUCACUUCCAGAGAGGACCUAUCCCAAAUGUGGAUGGAAUUCUCGGGUGCCAA | 23.6 |
| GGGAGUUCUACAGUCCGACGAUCCCCUUUGUCUUAAAGAAGACUAAUGUUAAUUGUUCUCAGAACUGGACGUUUUUUUUCCCCCCAUCAAAAUUAAAACUCUUUCUUUUGGAUUUAAUGAAGUAUUGCUAACUUGGAAUUCUCGGGUGCCAA | 0.898 |
| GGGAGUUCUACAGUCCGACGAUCGGGCCAUACCAGGGCGCGGCGCUGGGUUGCCACACUUGGGAAAGCAGCCCGGAGCUGGGUGCUGGGGAAGGCGGGGCGCGUAGCCUCCCGCCGCCCUGCGGUUGGGCCGGUGGAAUUCUCGGGUGCCAA | 0.251 |
| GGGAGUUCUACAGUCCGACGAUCAGAAUCUAACAGGUAUGACACAUUCAGUUAUUCUAACAGGGCACAGUACUGUGCUAUAUGUAGCCGCCUUUACAGAUGUUAUUAACCUAUAGUAGUUUACUAUUAACUAGUGGAAUUCUCGGGUGCCAA | 0.326 |
| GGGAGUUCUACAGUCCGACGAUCCUGGAAUUAAAUGACCGACCAACACAGUACCAAGAGGAUGAAGAGAAGAUGUUUUGCGUUGCUACGUGAAUCAGUGGAUGACUCAUAUUUCACUUGCAUAUGAAAUAUAAUGGAAUUCUCGGGUGCCAA | 0.687 |
| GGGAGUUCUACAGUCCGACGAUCAACGCCCUAAGCACUUCCUGGAACUGAAGAGCUUUAAGGACAACUAUAACACACUGGAGAGCACUCUGUGAUGGGGCUGCACACGUGCAGCCGUGCAGCACUCGGGAUGUUGGAAUUCUCGGGUGCCAA | 0.576 |
| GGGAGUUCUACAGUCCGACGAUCAGCAGGCCACCAGCAGCAGCUGUGCAGCAUGGAACUCAGGCCAGGCUCCGAGGCUGGGGGAUCUGCUUGGAGUUUUCUGCCCCCCACCCCAAACUUCUGUCGAGGAGCAAUGGAAUUCUCGGGUGCCAA | 3.2 |
| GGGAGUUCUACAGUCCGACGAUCAGACCAAUCAAGUCACUUGACAAUAUGCCCCAAGUGACUCCCUUACCCUGUUUUAUAAACCUGUGCCUGUCUAUGGAGAAGGUUUUAAUUCUCCUUGUUAUUCAUUUUGGUGGAAUUCUCGGGUGCCAA | 0.414 |
| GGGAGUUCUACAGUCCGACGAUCUCUACCUCUGUCUCUUUAACCAUGCUGUCUCUGGACUGAGCAAGAGGGAGGAGGGAGCCUGCUCACCCCACUCCAGGGCCUUCCCCAGCGGCCACCAACUGACCUGGGGCUGGAAUUCUCGGGUGCCAA | 0.394 |
| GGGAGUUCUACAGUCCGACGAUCAAUUUCAAUUGCCUCGAUAAGUUUCCAAGUCACUGAAAUCUGCUGAAGGUUUUACUGUAUUGUUGCACAACUUUAAGAUAAUUUUUGUCUCAAUGUCAACUUUUUUCACUUGGAAUUCUCGGGUGCCAA | 0.391 |
| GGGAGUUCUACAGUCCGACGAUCUGAUUCCUGUGGUGAGAAGGAAAGCUACAGGACCUGGAGAAGGGGAUGCAGAGGCAGGCCUGCUGACCAACUUGUUGCAAUCACAAAGGUGGGGGUCCUGGUGCAGGCAGUGGAAUUCUCGGGUGCCAA | 0.735 |
| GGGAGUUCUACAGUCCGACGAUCAGGAACCCAGCCUCCUGUGUUUUGACCCUCCUGCAGGCACUGUGGGACUCGAGGGCAGCAGAUCCAUCUCCCGUCCCUUGCUGCAUGAUGGUCACUAGCUGAUCUGUGAUUGGAAUUCUCGGGUGCCAA | 0.627 |

Sample 3
Target: MAFF, bZIP domain (human)
Method: DHFR protein complementation
Matrix: yeast
Notes: single substitutions, most at no-binding floor
Relative to: wild-type JUN-FOS pair
Direction: higher = stronger binding
Starting sequence: JUN, bZIP domain (human); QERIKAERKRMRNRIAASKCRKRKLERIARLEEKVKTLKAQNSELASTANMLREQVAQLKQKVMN; partner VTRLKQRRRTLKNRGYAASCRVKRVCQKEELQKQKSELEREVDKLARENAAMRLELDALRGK
| Change | binding fitness [natural log] |
| --- | --- |
| S43H | -1.49 |
| A49H | -1.48 |
| A40H | -1.15 |
| S47A | -1.4 |
| E44T | -1.44 |
| V35T | -1.47 |
| E32Q | -1.49 |
| A40W | -1.49 |
| K34Q | -1.33 |
| R30L | -1.35 |
| K39H | -1.53 |
| R53L | -1.61 |
| L45Y | -1.53 |
| K36S | -1.48 |
| Q55W | -1.58 |
| A46N | -1.42 |
| M51T | -1.38 |
| I28N | -1.5 |
| A57H | -1.46 |
| L45R | -1.53 |
| L52F | -1.45 |
| S43F | -1.4 |
| S47W | -1.27 |

Sample 4
Target: CCNB3, cyclin fold, Cln2 fusion (human)
Method: yeast growth competition, sequencing
Matrix: yeast
Notes: weak parent motif
Relative to: not given
Direction: higher = stronger binding
Starting sequence: E2F2 docking peptide (human); LPAKRKLDLEGIG; partner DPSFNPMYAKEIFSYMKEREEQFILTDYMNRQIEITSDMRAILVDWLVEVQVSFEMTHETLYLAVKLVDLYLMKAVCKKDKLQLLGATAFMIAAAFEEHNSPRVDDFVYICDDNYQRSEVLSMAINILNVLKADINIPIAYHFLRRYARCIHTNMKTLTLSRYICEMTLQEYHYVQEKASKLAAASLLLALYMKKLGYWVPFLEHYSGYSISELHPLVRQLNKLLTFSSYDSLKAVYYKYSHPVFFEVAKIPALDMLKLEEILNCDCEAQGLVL
| Change | normalised enrichment score |
| --- | --- |
| LPAKRKLDFEGIG [L9F] | 3.49 |
| LPAKKKLDLEGIG [R5K] | 0.291 |
| LPAKAKLDLEGIG [R5A] | 0.433 |
| LAAKRKLDLEGIG [P2A] | 0.354 |
| LPAKAKADLEGIG [R5A L7A] | 0.479 |
| APAKRKLDLEGIG [L1A] | 0.54 |
| LPAKRKLDLEAIG [G11A] | 0.351 |
| LPAKRALDLEGIG [K6A] | 0.268 |
| LPAKRKLDLEGIA [G13A] | 1.04 |

Sample 5
Target: Prothrombin, mature alpha-thrombin (F2, Homo sapiens, UniProt P00734)
Method: aptamer microarray, sandwich
Form: DNA with 2'F-ANA
Matrix: in vitro
Tested at: 200 nM
Notes: whole 15-mer aptamer, many near background
Together with: Cy3 exosite-II aptamer, 400 nM
Direction: higher = stronger binding
Strand: GGTTGGTGTGGTTGG
| Modification | mean fluorescence intensity |
| --- | --- |
| 2'F-ANA at 4 5 6 8 9 11 | 60.5 a.u. |
| 2'F-ANA at 2 4 7 9 10 12 14 | 127 a.u. |
| 2'F-ANA at 1 2 5 7 9 10 11 12 13 | 45.8 a.u. |
| 2'F-ANA at 4 7 8 10 12 | 166 a.u. |
| 2'F-ANA at 3 5 7 9 11 12 15 | 236 a.u. |
| 2'F-ANA at 1 2 3 4 6 7 9 12 13 15 | 174 a.u. |
| 2'F-ANA at 3 5 6 8 9 13 14 15 | 56 a.u. |
| 2'F-ANA at 2 6 7 9 10 12 13 | 146 a.u. |
| 2'F-ANA at 1 2 5 8 10 12 | 49 a.u. |
| 2'F-ANA at 1 2 4 5 6 7 8 11 12 13 15 | 70.3 a.u. |
| 2'F-ANA at 2 6 12 13 | 525 a.u. |
| 2'F-ANA at 1 2 3 5 6 10 12 13 14 15 | 73.1 a.u. |
| 2'F-ANA at 2 4 5 6 9 14 15 | 46.5 a.u. |
| 2'F-ANA at 1 2 3 6 8 10 12 14 | 55.8 a.u. |
| 2'F-ANA at 1 4 5 6 7 9 11 13 14 | 51.3 a.u. |
| 2'F-ANA at 1 2 3 4 5 6 7 8 11 13 14 | 48.4 a.u. |
| 2'F-ANA at 1 2 4 8 10 11 12 13 15 | 52.2 a.u. |
| 2'F-ANA at 1 2 5 7 10 11 12 14 15 | 52.5 a.u. |
| 2'F-ANA at 3 5 6 7 8 10 11 12 15 | 76.7 a.u. |
| 2'F-ANA at 1 2 3 4 12 13 14 15 | 72.8 a.u. |
| 2'F-ANA at 2 3 5 7 8 10 11 14 15 | 54.3 a.u. |
| 2'F-ANA at 1 2 4 6 7 8 12 13 14 15 | 62.4 a.u. |
| 2'F-ANA at 1 3 4 7 10 11 12 14 | 53.8 a.u. |
| 2'F-ANA at 1 2 6 8 9 11 12 13 15 | 238 a.u. |
| 2'F-ANA at 1 3 5 11 12 13 14 15 | 58.5 a.u. |
